{"data": "Measured values collected from several papers", "note": "A part holds a random share of what one study measured."}
{"data": "Set 1", "target": "Histone acetyltransferase KAT6A, both winged helices, GST fusion (KAT6A, Homo sapiens, UniProt Q92794, residues 1-181)", "method": "protein binding microarray", "molecule type": "double-stranded DNA, one strand shown", "matrix": "in vitro", "concentration": "not given", "setting": "8-mer, flanks averaged, mean of 2 arrays, mostly near background", "baseline": "not given", "direction": "higher = stronger binding", "Construct (chain)": "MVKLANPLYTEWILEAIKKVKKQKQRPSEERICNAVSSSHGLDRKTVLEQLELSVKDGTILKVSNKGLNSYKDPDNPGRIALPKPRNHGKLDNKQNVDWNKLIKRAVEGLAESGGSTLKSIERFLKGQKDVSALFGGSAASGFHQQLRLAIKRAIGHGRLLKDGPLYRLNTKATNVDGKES"}
{"Oligonucleotide": "GCCACTCC", "E-score": 0.0156}
{"Oligonucleotide": "CAACACAG", "E-score": -0.149}
{"Oligonucleotide": "ATTCAAGG", "E-score": -0.181}
{"Oligonucleotide": "GGCCTATA", "E-score": -0.086}
{"Oligonucleotide": "CATTCTAC", "E-score": -0.163}
{"Oligonucleotide": "AATCGTCT", "E-score": 0.0333}
{"data": "Set 2", "target": "Interferon regulatory factor 7, full length, phosphomimetic (IRF7, Homo sapiens, UniProt Q92985, residues 1-503, S471D/S472D/S475D/S476D/S477D/S483D/S484D/S487D)", "method": "protein-binding microarray", "molecule type": "double-stranded DNA, one strand shown", "matrix": "in vitro", "concentration": "2200 nM top", "setting": "60-bp whole probe", "added": "salmon DNA 0.4 mg/ml", "baseline": "random background probes", "direction": "higher = stronger binding", "shared flanks, not repeated": "GCCTAGCAC … GTCTTGATTCGCTTGACGCTGCTG", "sequence of UniProt Q92985 (whole entry, unmodified, looked up)": "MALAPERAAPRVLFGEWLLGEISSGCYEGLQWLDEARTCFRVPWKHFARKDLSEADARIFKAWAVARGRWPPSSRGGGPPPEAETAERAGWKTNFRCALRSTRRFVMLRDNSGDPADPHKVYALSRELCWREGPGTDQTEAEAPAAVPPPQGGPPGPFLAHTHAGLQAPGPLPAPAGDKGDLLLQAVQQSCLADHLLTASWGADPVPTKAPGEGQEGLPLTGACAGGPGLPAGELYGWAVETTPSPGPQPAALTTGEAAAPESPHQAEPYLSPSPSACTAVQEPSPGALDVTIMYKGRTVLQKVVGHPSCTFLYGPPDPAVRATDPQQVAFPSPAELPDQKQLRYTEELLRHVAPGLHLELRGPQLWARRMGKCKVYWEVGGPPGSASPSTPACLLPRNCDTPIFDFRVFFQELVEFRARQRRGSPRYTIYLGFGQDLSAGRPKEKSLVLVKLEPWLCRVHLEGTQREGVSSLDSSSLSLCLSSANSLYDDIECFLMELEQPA"}
{"Oligonucleotide": "TCACTTTACACACATCATCTTGTGCTA", "fitted relative affinity": "2.76 z-score"}
{"Oligonucleotide": "TTAGGTTCCCATTTCCTTTAGTGCTAG", "fitted relative affinity": "2.9 z-score"}
{"Oligonucleotide": "GACGGTTTCGGATCCGGGACGTGCTAG", "fitted relative affinity": "6.48 z-score"}
{"Oligonucleotide": "TACCCTTTGAAAGTTGTTTTAGTGCTA", "fitted relative affinity": "0.594 z-score"}
{"Oligonucleotide": "GACGGACTGCTCCTGCTGACGTGCTAG", "fitted relative affinity": "-0.475 z-score"}
{"data": "Set 3", "target": "Sal-like protein 4, full length isoform A (SALL4, Homo sapiens, UniProt Q9UJQ4, residues 1-1053)", "method": "universal PBM", "molecule type": "double-stranded DNA, one strand shown", "matrix": "in vitro", "concentration": "600 nM", "setting": "8-mer, flanks averaged, mean of replicates", "direction": "higher = stronger binding", "sequence of UniProt Q9UJQ4 (whole entry, looked up)": "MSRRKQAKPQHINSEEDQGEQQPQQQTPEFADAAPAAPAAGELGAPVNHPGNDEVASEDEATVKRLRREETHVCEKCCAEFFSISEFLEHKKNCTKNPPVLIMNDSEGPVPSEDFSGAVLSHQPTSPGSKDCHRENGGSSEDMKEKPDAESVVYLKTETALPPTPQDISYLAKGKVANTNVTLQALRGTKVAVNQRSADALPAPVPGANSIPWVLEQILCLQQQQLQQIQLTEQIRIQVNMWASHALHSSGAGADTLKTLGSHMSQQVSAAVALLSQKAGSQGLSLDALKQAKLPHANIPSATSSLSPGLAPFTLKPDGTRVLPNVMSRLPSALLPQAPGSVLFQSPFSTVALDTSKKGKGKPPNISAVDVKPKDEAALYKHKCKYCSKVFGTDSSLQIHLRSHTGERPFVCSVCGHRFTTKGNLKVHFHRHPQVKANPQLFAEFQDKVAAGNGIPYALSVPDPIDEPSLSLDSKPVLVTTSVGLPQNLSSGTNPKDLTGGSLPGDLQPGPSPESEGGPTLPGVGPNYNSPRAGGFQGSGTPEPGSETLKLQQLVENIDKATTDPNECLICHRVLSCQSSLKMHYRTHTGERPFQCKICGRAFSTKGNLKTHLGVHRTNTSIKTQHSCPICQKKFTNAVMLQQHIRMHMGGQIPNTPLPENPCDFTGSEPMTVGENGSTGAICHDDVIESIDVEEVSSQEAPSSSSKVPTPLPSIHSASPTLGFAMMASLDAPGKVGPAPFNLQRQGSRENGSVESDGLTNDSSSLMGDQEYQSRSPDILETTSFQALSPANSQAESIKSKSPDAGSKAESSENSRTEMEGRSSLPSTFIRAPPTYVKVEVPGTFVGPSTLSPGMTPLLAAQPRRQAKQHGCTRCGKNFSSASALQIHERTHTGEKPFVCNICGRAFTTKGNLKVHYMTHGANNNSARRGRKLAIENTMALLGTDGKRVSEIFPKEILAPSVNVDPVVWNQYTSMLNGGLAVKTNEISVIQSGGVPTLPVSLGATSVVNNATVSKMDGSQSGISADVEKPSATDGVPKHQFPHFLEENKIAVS"}
{"Oligonucleotide": "CGCTCCCA", "E-score": -0.188}
{"Oligonucleotide": "ACCTTTTG", "E-score": -0.0435}
{"Oligonucleotide": "CGTGCGAA", "E-score": -0.0759}
{"Oligonucleotide": "CCATGCTA", "E-score": -0.036}
{"Oligonucleotide": "TAATCAAA", "E-score": 0.318}
{"data": "Other studies, line by line"}
{"Substance": "PhoQ, residues 284 288 289 292 302 303 DDMDFR", "target": "PhoP, residues 12 14 15 18 19 AWHSL (Escherichia coli, UniProt P23836)", "test": "Sort-seq, measured: YFP reporter", "system": "E. coli", "conditions": "PhoQ-PhoP variant library, added: 10 µM Mg2+", "scale": "baseline: high Mg2+ state, higher = stronger signaling", "measurement": "fold induction", "value": 0.891}
{"note": "Repeated from above (set 2):"}
{"Oligonucleotide": "TTAGGTTCCCATTTCCTTTAGTGCTAG", "fitted relative affinity": "2.9 z-score"}
{"Oligonucleotide": "GACGGTTTCGGATCCGGGACGTGCTAG", "fitted relative affinity": "6.48 z-score"}
{"Oligonucleotide": "TACCCTTTGAAAGTTGTTTTAGTGCTA", "fitted relative affinity": "0.594 z-score"}
